Experimental data collected from several papers.
± gives the spread as reported.
Target: Mitogen-activated protein kinase 8 (MAPK8, Homo sapiens, UniProt P45983)
Chain of UniProt P45983 (whole entry, looked up): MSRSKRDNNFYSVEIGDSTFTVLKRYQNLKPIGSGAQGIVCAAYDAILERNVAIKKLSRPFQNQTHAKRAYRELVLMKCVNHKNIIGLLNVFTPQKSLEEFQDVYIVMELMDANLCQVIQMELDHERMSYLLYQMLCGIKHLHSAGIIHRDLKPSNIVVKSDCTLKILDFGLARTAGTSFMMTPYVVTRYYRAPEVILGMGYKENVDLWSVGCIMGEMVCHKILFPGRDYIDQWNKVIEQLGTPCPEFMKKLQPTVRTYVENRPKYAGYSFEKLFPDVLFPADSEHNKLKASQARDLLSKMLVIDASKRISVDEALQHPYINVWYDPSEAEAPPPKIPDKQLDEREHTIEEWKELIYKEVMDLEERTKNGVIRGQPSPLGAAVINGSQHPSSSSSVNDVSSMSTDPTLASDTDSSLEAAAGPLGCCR

Structure (SMILES)	assay	test system	setting	endpoint	result
CC(C)C[C@H](NC(=O)[C@H](CC(N)=O)NC(=O)[C@H](CC(C)C)NC(=O)[C@@H](NC(=O)[C@@H](NC(=O)[C@@H]1CCCN1C(=O)[C@H](CCCNC(=N)N)NC(=O)[C@H](CCCCN)NC(=O)[C@@H]1CCCN1C(=O)[C@H](CCCNC(=N)N)NC(=O)[C@H](CCCNC(=N)N)NC(=O)[C@H](CCCNC(=N)N)NC(=O)[C@H](CCCNC(=N)N)NC(=O)[C@H](CCC(N)=O)NC(=O)[C@H](CCCNC(=N)N)NC(=O)[C@H](CCCNC(=N)N)NC(=O)[C@H](CCCCN)NC(=O)[C@H](CCCCN)NC(=O)[C@H](CCCNC(=N)N)NC(=O)CNC(=O)[C@@H](N)Cc1ccc(O)cc1)[C@@H](C)O)[C@@H](C)O)C(=O)N[C@@H](Cc1ccccc1)C(N)=O	enzyme activity, inhibitor	–	–	IC50	1.1 ± 0.1 µM
CC(C)C[C@H](NC(=O)[C@H](CCCCN)NC(=O)[C@H](C)NC(=O)[C@H](CCCNC(=N)N)NC(=O)[C@H](CCCNC(=N)N)NC(=O)[C@H](Cc1c[nH]cn1)NC(=O)[C@H](CCCCN)NC(=O)[C@H](CCC(=O)O)NC(=O)[C@H](C)NC(=O)[C@@H](N)Cc1ccc(O)cc1)C(=O)N[C@@H](CCCNC(=N)N)C(=O)N[C@@H](CC(C)C)C(=O)N[C@@H](Cc1ccc(O)cc1)C(=O)N[C@@H](CC(C)C)C(=O)N[C@@H](CCC(=O)O)C(=O)N[C@@H](CCC(N)=O)C(=O)O	kinase activity, inhibitor, SOX fluorogenic	–	pH 7.5, with: ATP 1 mM	IC50	1.1 µM
CC(C)C[C@@H](NC(=O)[C@@H](Cc1ccccc1)NC(=O)[C@H]1CCCN1C(=O)[C@@H](CCC(N)=O)NC(=O)[C@H](NC(=O)[C@H]1CCCN1C(=O)[C@@H](CCCNC(=N)N)NC(=O)[C@@H](CO)NC(=O)[C@@H](CCC(N)=O)NC(=O)[C@@H](CC(=O)O)NC(=O)[C@H](N)[C@H](C)O)C(C)C)C(=O)N[C@H](CC(N)=O)C(=O)N[C@H](CC(C)C)C(=O)N[C@@H](C(=O)N[C@@H](C(=O)N1CCC[C@@H]1C(=O)N[C@H](CCCNC(=N)N)C(=O)N[C@H](CCCCN)C(=O)N1CCC[C@@H]1C(=O)N[C@H](CCCNC(=N)N)C(=O)N1CCC[C@@H]1C(=O)N1CCC[C@@H]1C(=O)N[C@H](CCCNC(=N)N)C(=O)N[C@H](CCCNC(=N)N)C(=O)N[C@H](CCCNC(=N)N)C(=O)N[C@H](CCC(N)=O)C(=O)N[C@H](CCCNC(=N)N)C(=O)N[C@H](CCCNC(=N)N)C(=O)N[C@H](CCCCN)C(=O)N[C@H](CCCCN)C(=O)N[C@H](CCCNC(=N)N)C(=O)NCC(N)=O)[C@H](C)O)[C@H](C)O	kinase activity, inhibitor, radiometric	–	pH 7.5, 30 °C, with: GST-c-Jun substrate	IC50	288 ± 24 µM
CC(C)CN(CC(=O)NCCCCCCNC(=O)c1ccc(-c2n[nH]c3ccccc23)cc1)C(=O)CNC(=O)C1COc2ccccc2O1 (stereo not drawn)	enzyme activity, inhibitor	–	–	IC50	0.164 µM
Cc1cc(NC(=O)c2cccc(-n3cc(NC(=O)Nc4ccc(F)cc4)cn3)c2)ccn1	enzyme activity, inhibitor, TR-FRET	–	–	IC50	1.15 µM
COC(=O)C1(C)C=C(C(=O)OC(C)(C)C)C(=O)CC1 (stereo not drawn)	ligand displacement, FP	–	–	Ki	7.4 µM
CC(C)C[C@@H](NC(=O)[C@@H](Cc1ccccc1)NC(=O)[C@H]1CCCN1C(=O)[C@@H](CCC(N)=O)NC(=O)[C@H](NC(=O)[C@H]1CCCN1C(=O)[C@@H](CCCNC(=N)N)NC(=O)[C@@H](CO)NC(=O)[C@@H](CCC(N)=O)NC(=O)[C@@H](CC(=O)O)NC(=O)[C@H](N)[C@H](C)O)C(C)C)C(=O)N[C@H](CC(N)=O)C(=O)N[C@H](CC(C)C)C(=O)N[C@@H](C(=O)N[C@@H](C(=O)N1CCC[C@@H]1C(=O)N[C@H](CCCNC(=N)N)C(=O)N[C@H](CCCCN)C(=O)N1CCC[C@@H]1C(=O)N[C@H](CCCNC(=N)N)C(N)=O)[C@H](C)O)[C@H](C)O	kinase activity, inhibitor, radiometric	–	pH 7.5, 30 °C, with: GST-c-Jun substrate	IC50	2200 ± 25 µM
CC(C)(C)OC(=O)C1=C[C@@](C)(C(=O)OCC#Cc2ccncc2)CCC1=O	ligand displacement, FP	–	–	Ki	2.7 µM
CC[C@H](C)[C@H](NC(=O)[C@H](CCCCN)NC(=O)[C@H](CC(C)C)NC(=O)[C@H](CCCCN)NC(=O)[C@H](Cc1c[nH]cn1)NC(=O)[C@H](CCC(=O)O)NC(=O)[C@H](CCCCN)NC(=O)[C@H](CCCCN)NC(=O)[C@H](CCCNC(=N)N)NC(=O)[C@@H](NC(=O)[C@H](CCC(N)=O)NC(=O)[C@H](CCCCN)NC(=O)[C@H](C)NC(=O)[C@@H](N)Cc1ccc(O)cc1)C(C)C)C(=O)N[C@H](C(=O)N1CCC[C@H]1C(=O)O)[C@@H](C)O	kinase activity, inhibitor, SOX fluorogenic	–	pH 7.5, with: ATP 1 mM	IC50	> 100 µM
Cc1ccc(NC(=O)Nc2cnn(-c3cccc(C(=O)Nc4ccnc(C)c4)c3)c2)cc1	enzyme activity, inhibitor, TR-FRET	–	–	IC50	> 10 µM
Cc1cc(NC(=O)c2cccc(N)c2)ccc1Nc1nccc(-c2cccnc2)n1	target engagement, NanoBRET	HEK293	2 h, with: tracer K-5	EC50	0.417 ± 0.038 µM
COC(=O)C1(Cc2ccccc2)C=C(C(=O)OC(C)(C)C)C(=O)CC1 (stereo not drawn)	ligand displacement, FP	–	–	Ki	4.8 µM

A few entries again:
Structure (SMILES)	assay	test system	setting	endpoint	result
Cc1cc(NC(=O)c2cccc(-n3cc(NC(=O)Nc4ccc(F)cc4)cn3)c2)ccn1	enzyme activity, inhibitor, TR-FRET	–	–	IC50	1.15 µM
